{"data": "Published values of several laboratories", "note": "Compare with care: the assays were run in different laboratories. Numbers after ± are the reported error."}
{"SMILES": "C=CC(=O)N1CCC[C@@H](c2ccc(C(N)=O)c3[nH]ccc23)C1", "target or system": "TMD8 RAC2 knockout", "test": "calcium flux, FLIPR", "conditions": "4 h preincubation", "endpoint": "IC50", "value": "15 nM"}
{"SMILES": "O=C(CO)[C@@H](O)[C@H](O)[C@H](O)COP(=O)(O)O", "test": "binding, equilibrium dialysis LC-MS", "conditions": "5 µM, thermostabilized A2AR-BRIL construct", "scale": "baseline: no-protein control, direction not given", "endpoint": "z-scored log2 fold change", "value": 0.126}
{"SMILES": "C=CC(=O)N1CCC(COCC(=O)N2CCN(c3nc(-c4cnc(N)nc4C(F)F)nc(N4CCOC[C@@H]4C)n3)CC2)CC1", "target or system": "SK-OV-3", "test": "FOXO1 translocation, kinase translocation reporter", "conditions": "2 h", "endpoint": "IC50", "value": "92.5 nM"}
{"SMILES": "COc1c(Cl)cccc1Nc1c(-c2ccncc2OC[C@@H]2COCCO2)[nH]c2c1C(=O)NCC2", "target or system": "Ba/F3 expressing HER2 L755S", "test": "cell growth, inhibitor, CellTiter-Glo", "endpoint": "IC50", "value": "1.9 nM"}
{"SMILES": "O=C(CO)[C@@H](O)[C@H](O)[C@H](O)[C@H](O)COP(=O)(O)O", "test": "binding, equilibrium dialysis LC-MS", "conditions": "5 µM, thermostabilized A2AR-BRIL construct", "scale": "baseline: no-protein control, direction not given", "endpoint": "z-scored log2 fold change", "value": 0.173}
{"SMILES": "CC(C)(C)c1cnc(CSc2cnc(NC(=O)C3CCN(C(=O)CCCCCN4Cc5cc6c(cc5C4)C(=O)N(C4CCC(=O)NC4=O)C6=O)CC3)s2)o1 (stereo not drawn)", "target or system": "TC-71", "test": "cell growth, MTT", "conditions": "72 h", "endpoint": "IC50", "value": "4.7 ± 1.4 nM"}
{"SMILES": "C=CC(=O)N1CCC(C(=O)NCC(=O)N2CCN(c3nc(-c4cnc(N)nc4C(F)F)nc(N4CCOCC4)n3)CC2)CC1", "target or system": "SK-OV-3", "test": "Akt phosphorylation, inhibitor, in-cell western, measured: Akt pSer473", "endpoint": "IC50", "value": "81.3 nM"}
{"SMILES": "COC(=O)CC1CCN(C(=O)c2cc(-c3cccs3)nn2-c2ccccc2)CC1", "target or system": "human PBMC monocytes", "test": "phagocytosis of anti-D RBCs", "endpoint": "IC50", "value": "12400 ± 2700 nM"}
{"SMILES": "CC(=O)c1c(C)c2cnc(Nc3ccc(N4CCNCC4)cn3)nc2n(C2CCCC2)c1=O", "target or system": "MCF7/luciferase, wild type", "test": "cell proliferation", "endpoint": "IC50", "value": "53.8 nM"}
{"SMILES": "CCN1CCN(Cc2ccc(NC(=O)c3ccc(C)c(-c4ccc5nc(NC(=O)C6CC6)cn5n4)c3)cc2C(F)(F)F)CC1", "target or system": "SET-2", "test": "cell viability, CellTiter-Glo", "conditions": "72 h", "endpoint": "IC50", "value": "1010 nM"}
{"SMILES": "O=C(C[C@@H](C(F)F)n1ccc(F)n1)N1CCC(O)(Cn2cnc3c(cnn3-c3ccc(F)cc3)c2=O)CC1", "target or system": "CHP-212", "test": "cell viability, SRB", "conditions": "mean of replicates", "endpoint": "IC50", "value": "58.7 nM"}
{"SMILES": "CC(C)(C)c1cnc(CSc2cnc(NC(=O)C3CCN(C(=O)CCCCCCCN4Cc5cc6c(cc5C4)C(=O)N(C4CCC(=O)NC4=O)C6=O)CC3)s2)o1 (stereo not drawn)", "target or system": "TC-71", "test": "cell growth, MTT", "conditions": "72 h", "endpoint": "IC50", "value": "8.5 ± 0.2 nM"}
{"SMILES": "CCOC(=O)c1nn(-c2ccccc2)c(C#N)c1NC(=O)c1nn(CC)cc1F", "target or system": "human PBMC monocytes", "test": "phagocytosis of anti-D RBCs", "endpoint": "IC50", "value": "> 100000 nM"}
{"SMILES": "COc1cc(N2CCC(N3CCN(C)CC3)CC2)ccc1Nc1ncc(Cl)c(Nc2ccccc2P(C)(C)=O)n1", "target or system": "NB1 (ALK amplification, exon 2-3 deletion)", "test": "cell viability", "endpoint": "IC50", "value": "6.92 nM"}
{"SMILES": "CCC(=O)N1CCC(COCC(=O)N2CCN(c3nc(-c4cnc(N)nc4C(F)F)nc(N4CCOC[C@@H]4C)n3)CC2)CC1", "target or system": "SK-OV-3", "test": "western blot, measured: phospho-S6 Ser235/Ser236", "conditions": "2 h", "endpoint": "IC50", "value": "78.7 nM"}
{"SMILES": "C#Cc1cccc(Nc2ncnc3cc(OCCOC)c(OCCOC)cc23)c1", "target or system": "C6 rat cells", "conditions": "24 h", "endpoint": "IC50", "value": "> 100000 nM"}
{"SMILES": "C[C@H](Nc1ccc2c(c1)OCCn1cc(N3C(=O)OC[C@H]3C(F)F)nc1-2)C(N)=O", "target or system": "NCI-H358 (PIK3CA WT, KRAS G12C)", "test": "basal AKT phosphorylation, HTRF, measured: phospho-AKT", "conditions": "4 h", "endpoint": "IC50", "value": "15.7 ± 2.9 nM"}
{"SMILES": "Cc1cc(N2CCc3c(c(C)nn3CC34CCC(NC(=O)[C@@H]5COCCN5)(CC3)CC4)C2)c2cnn(C)c2n1", "target or system": "human PBMC", "test": "IFN-driven gene expression, inhibitor, qRT-PCR, measured: OASL mRNA", "conditions": "two donors, with: ssRNA", "endpoint": "IC50", "value": "1.1 ± 0.2 nM"}
{"SMILES": "C=CC(=O)N1CCC([C@@H]2CCNc3c(C(N)=O)c(-c4ccc(Oc5ccccc5)cc4)nn32)CC1", "target or system": "Ramos", "test": "calcium flux, FLIPR", "conditions": "2 h preincubation", "endpoint": "IC50", "value": "1.87 nM"}
{"SMILES": "CCCCN1C[C@H](O)[C@@H](O)[C@@H](O)[C@H]1CO", "target or system": "sample G patient fibroblasts", "test": "GlcCer level lowering, LC-MS/MS, measured: GlcCer d18:1/24:1", "conditions": "216 h", "endpoint": "IC50", "value": "30900 nM"}
{"SMILES": "C=CC[C@@H]1/C=C(\\C)C[C@H](C)C[C@H](OC)[C@H]2O[C@@](O)(C(=O)C(=O)N3CCCC[C@H]3C(=O)O[C@H](/C(C)=C/[C@@H]3CC[C@@H](O)[C@H](OC)C3)[C@H](C)[C@@H](O)CC1=O)[C@H](C)C[C@@H]2OC", "target or system": "Jurkat wild type", "test": "NFAT luciferase reporter", "endpoint": "IC50", "value": "0.01 nM"}
{"SMILES": "CC(C)(C)Cn1c(N)nc2ccc(-c3[nH]c(C(C)(C)C)nc3-c3ccc(F)cc3)nc21", "target or system": "cell lines, cancer, EGFR-mutated", "test": "cell viability", "conditions": "median across lines", "endpoint": "IC50", "value": "3500 nM"}
{"SMILES": "CC(C)C[C@H](NC(=O)[C@H](Cc1ccccc1)NC(=O)c1cnccn1)B(O)O", "target or system": "MCAS", "test": "cell growth, CellTiter-Glo", "system": "ovary", "endpoint": "IC50", "value": "8.5 nM"}
{"SMILES": "CC#CC(=O)N1CCC[C@H]1c1nc(-c2ccc(C(=O)Nc3ccccn3)cc2)c2c(N)nccn12", "target or system": "TMD8 RAC2 knockout", "test": "calcium flux, FLIPR", "conditions": "1 h preincubation", "endpoint": "IC50", "value": "82 nM"}
{"SMILES": "CN1CC(Oc2cnc(C#N)cc2-c2ccn3nc(NC(=O)C4CC4)cc3c2)C1", "target or system": "dendritic cells, mouse, bone marrow-derived", "test": "cytokine release, measured: TNF", "conditions": "with: LPS", "endpoint": "IC50", "value": "5920 nM"}
{"SMILES": "C[C@H](Nc1ccc2c(c1)OCCn1cc(N3C(=O)OC[C@H]3C(F)F)nc1-2)C(N)=O", "target or system": "SK-OV-3", "test": "western blot, measured: phospho-S6 Ser235/Ser236", "conditions": "2 h", "endpoint": "IC50", "value": "36.3 nM"}
{"SMILES": "CCOC(=O)c1nn(-c2ccccc2)c(C#N)c1NC(=O)c1nn(CC)cc1Cl", "target or system": "human PBMC monocytes", "test": "phagocytosis of anti-D RBCs", "endpoint": "IC50", "value": "> 100000 nM"}
{"SMILES": "C=CC(=O)N1CCC(C(=O)NCCN2CCN(c3nc(-c4cnc(N)nc4C(F)F)nc(N4CCOCC4)n3)CC2)CC1", "target or system": "SK-OV-3", "test": "Akt phosphorylation, inhibitor, in-cell western, measured: Akt pSer473", "endpoint": "IC50", "value": "67.6 nM"}
{"SMILES": "CC(C)(C)c1cnc(CSc2cnc(NC(=O)C3CCN(C(=O)CCOCCN4Cc5cc6c(cc5C4)C(=O)N(C4CCC(=O)NC4=O)C6=O)CC3)s2)o1 (stereo not drawn)", "target or system": "TC-71", "test": "cell growth, MTT", "conditions": "72 h", "endpoint": "IC50", "value": "8.9 ± 0.3 nM"}
{"SMILES": "C[C@H]1CN(C2COC2)CCN1c1ccc(Nc2cc(-c3ccnc(N4CCn5c(cc6c5CC(C)(C)C6)C4=O)c3CO)cn(C)c2=O)nc1", "target or system": "Ramos", "test": "calcium flux, FLIPR", "conditions": "2 h preincubation", "endpoint": "IC50", "value": "4.56 nM"}
{"SMILES": "CC1=CC(=O)C(C(C)C)=CC1=O", "target or system": "HK-2", "test": "cell viability, CCK-8", "conditions": "48 h", "endpoint": "IC50", "value": "58000 ± 4120 nM"}
{"SMILES": "C[C@H]1Oc2cc(cnc2N)-c2c(nn(C)c2C#N)CN(C)C(=O)c2ccc(F)cc21", "target or system": "ALK fusion wild-type cell lines", "test": "cell viability", "conditions": "geometric mean over 8 lines", "endpoint": "IC50", "value": "< 2.1 nM"}
{"SMILES": "O=C(Nc1nccs1)c1cnn(-c2ccccc2)c1-n1cccc1", "target or system": "human PBMC monocytes", "test": "phagocytosis of anti-D RBCs", "endpoint": "IC50", "value": "18400 ± 8500 nM"}
{"SMILES": "CC1(C)COc2ccc(F)cc2CN2c3nc4c(cnn4cc3OC[C@H]2C(F)F)C(=O)N1", "target or system": "NB1 (ALK amplification, exon 2-3 deletion)", "test": "cell viability", "endpoint": "IC50", "value": "5.74 nM"}
{"SMILES": "CC#Cc1cncc(-c2ccc3c(c2)[C@@]2(N=C(C)C(N)=N2)[C@]2(CC[C@H](OC)CC2)C3)c1", "target or system": "HEK293 overexpressing APP Swedish mutant", "test": "Aβ42 production", "endpoint": "IC50", "value": "0.37 nM"}
{"SMILES": "COc1cc2c3c(n(CCCn4ccnc4)c(=O)c2cc1OC)-c1nc2c(cc1C3=O)OCO2", "target or system": "TC-106 Ewing sarcoma cells", "test": "cytotoxicity, MTS", "conditions": "72 h", "endpoint": "IC50", "value": "229 ± 16 nM"}
{"SMILES": "Cc1nc(NC(=O)N2CCC[C@H]2C(N)=O)sc1-c1ccnc(C(C)(C)C(F)(F)F)c1", "target or system": "SK-OV-3", "test": "FOXO1 translocation, kinase translocation reporter", "conditions": "2 h", "endpoint": "IC50", "value": "1280 nM"}
{"SMILES": "C[C@@H]1CN(C(=O)c2ccc(NC(=O)c3cc(O[C@H](C)c4c(Cl)ccc(F)c4Cl)c(N)nn3)cc2)C[C@H](C)N1", "target or system": "Ba/F3 EML4-ALK variant 1 E1210K", "test": "cell viability", "endpoint": "IC50", "value": "64.2 nM"}
{"SMILES": "C=CC(=O)N1CCC[C@@H](n2nc(-c3ccc(Oc4ccccc4)cc3)c3c(N)ncnc32)C1", "target or system": "Ramos", "test": "calcium flux, FLIPR", "conditions": "4 h preincubation", "endpoint": "IC50", "value": "0.39 nM"}
{"SMILES": "CC(C)(C)c1cnc(CSc2cnc(NC(=O)C3CCN(C(=O)CCCCCCN4Cc5cc6c(cc5C4)C(=O)N(C4CCC(=O)NC4=O)C6=O)CC3)s2)o1 (stereo not drawn)", "target or system": "TC-71", "test": "cell growth, MTT", "conditions": "72 h", "endpoint": "IC50", "value": "9.6 ± 0.2 nM"}
{"SMILES": "Cc1cc(Nc2ncc(Cl)c(Nc3ccccc3S(=O)(=O)C(C)C)n2)c(OC(C)C)cc1C1CCNCC1", "target or system": "ALK fusion wild-type cell lines", "test": "cell viability", "conditions": "geometric mean over 8 lines", "endpoint": "IC50", "value": "27.8 nM"}
{"SMILES": "CCNCCCn1c2c(c3cc(OC)c(OC)cc3c1=O)C(=O)c1cc3c(nc1-2)OCO3", "target or system": "TC-106 Ewing sarcoma cells", "test": "cytotoxicity, MTS", "conditions": "72 h", "endpoint": "IC50", "value": "157 ± 2 nM"}
